Results from different studies.
Every numbered part comes from another study and shows a few of its results, in no order.

Study 1
Target: Interferon regulatory factor 7, full length, phosphomimetic (IRF7, Homo sapiens, UniProt Q92985, residues 1-503, S471D/S472D/S475D/S476D/S477D/S483D/S484D/S487D)
Method: protein-binding microarray
Form: double-stranded DNA, one strand shown
Matrix: in vitro
Concentration: 2200 nM top
Setting: 60-bp whole probe
Together with: salmon DNA 0.4 mg/ml
Relative to: random background probes
Reading: higher = stronger binding
All sequences stand within: GCCTAGCAC … GTCTTGATTCGCTTGACGCTGCTG
Target sequence (chain): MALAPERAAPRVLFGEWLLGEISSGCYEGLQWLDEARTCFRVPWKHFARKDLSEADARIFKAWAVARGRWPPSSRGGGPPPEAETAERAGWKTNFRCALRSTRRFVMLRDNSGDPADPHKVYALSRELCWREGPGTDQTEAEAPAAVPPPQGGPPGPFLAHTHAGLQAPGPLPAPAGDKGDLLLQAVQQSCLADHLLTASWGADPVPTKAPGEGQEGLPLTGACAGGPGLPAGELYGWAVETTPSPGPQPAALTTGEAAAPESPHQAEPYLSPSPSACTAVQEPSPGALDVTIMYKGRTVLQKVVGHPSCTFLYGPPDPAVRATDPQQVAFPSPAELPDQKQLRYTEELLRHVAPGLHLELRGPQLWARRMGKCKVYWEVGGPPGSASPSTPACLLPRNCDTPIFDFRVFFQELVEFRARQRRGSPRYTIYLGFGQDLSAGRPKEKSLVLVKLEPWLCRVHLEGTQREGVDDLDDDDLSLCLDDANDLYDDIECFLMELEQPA
Oligonucleotide | fitted relative affinity [z-score]
GACGATATCTGTTTCGAGACGTGCTAG | 2.42
TTAGGACTGCTTTTCCTTTCGTGCTAG | 2.42
TTAGGAATCGGGACTGGGTTAGTGCTA | -0.705
TTAGGTATCCGGTTTCGGTTAGTGCTA | 5.56
TCAGTTTTCTGGTTCCCACTGTGCTAG | 5.52
TCACTAATAAATATGAGACTGTGCTAG | -0.345
TTAGATACCAGTCTCGATTAGTGCTAG | 0.609
TTTGGACTGGGGTTTCGGTTAGTGCTA | 3.19
CAGCCTCTACCTCCTGGGCTCGTGCTA | -0.266
AACGAACTGAGACTGGAGACGTGCTAG | -0.344
TCATATTAAATTTTCACACTGTGCTAG | 1.26
GACGAACTTGGGTTTCGAGACGTGCTA | 1.19
GACGGTTTCCTTATCTTGACGTGCTAG | 2.67
TTAGAGCTCAGTCTCGATTAGTGCTAG | -0.227
GACGGACTGGGTCTCCGGACGTGCTAG | -0.926
TTAGGACTGCGGTATCGGTTAGTGCTA | -0.131

Study 2
Target: Histone acetyltransferase KAT6A, winged helix 1, GST fusion (KAT6A, Homo sapiens, UniProt Q92794, residues 1-85)
Method: protein binding microarray
Form: double-stranded DNA, one strand shown
Matrix: in vitro
Concentration: not given
Setting: 8-mer, flanks averaged, mean of 2 arrays, mostly near background
Relative to: not given
Reading: higher = stronger binding
Residues (chain): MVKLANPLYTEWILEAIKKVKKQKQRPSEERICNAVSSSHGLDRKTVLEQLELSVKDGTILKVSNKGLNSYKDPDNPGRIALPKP
Oligonucleotide | E-score
CAAGGTAG | -0.214
CGGCCGAA | 0.348
TAGTTTGA | -0.104
CTTCCTAC | -0.1
GAAACAGA | -0.23
ATAGTCTG | -0.189
AAGCTCTC | -0.136
GAATCTAC | -0.0464
TCATAAAA | -0.0714
GTTAGGTA | -0.0341
TCCCAGGA | -0.105
CCTCGTAC | 0.141
ACATAGCA | -0.139
TGTGCAAA | -0.173
ACGCTGTC | 0.0718
GCTGTGGA | -0.0607
AACCAATG | -0.215
CAAATCAG | -0.24
GAATACGC | 0.199
ATTTGGAG | -0.247
GCATTTTA | -0.0645
GACTCCTC | -0.162
GGAAACCC | 0.0117
ATGGGCTC | -0.113

Study 3
Target: RNA binding protein fox-1 homolog 2, RRM domain, GST-SBP tag (RBFOX2, Homo sapiens, UniProt O43251-10, residues 100-194)
Method: RNA Bind-n-Seq
Form: RNA
Matrix: in vitro
Concentration: 365 nM
Setting: natural RNA segment, single round, ends assumed
Relative to: no-protein control
Reading: higher = stronger binding
All sequences stand within: GGGAGUUCUACAGUCCGACGAUC … UGGAAUUCUCGGGUGCCAA
Target sequence (chain): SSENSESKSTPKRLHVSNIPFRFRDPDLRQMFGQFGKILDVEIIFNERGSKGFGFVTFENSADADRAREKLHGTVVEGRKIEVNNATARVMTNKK
Oligonucleotide | RBNS enrichment (R)
CUGGCUUUUUCACUGAACGUAUCAGAAUACAUGGAUGAAUUGGGGUAAAUAAGGUUUUAAUUCAGAUCUAGAAGAAAGUAUUGUACGUUUGAAUGCAGAUUUUUAUCCAC | 0.698
AUGGAAAUUAUAUCUUGUGACCGUCUUCAAGUGCAUGGACUUAAAAUUCAUGAGAGACUAAAUGUGAGGGAGAGGUGGAUUUAAAGAGGCCAGACCUUAACCAAAGAUGC | 0.618
UCUCUGGUACUAGCUGCUGUAGCAGUGCCCUUCAUCCAGGGCAGUUAAUGGAGUCUUGGACCCUUUCUUUCUCUGGGAUCCCUGCCCAGCACCUUCCUAUAGAGAUGACU | 0.284
GGGUGGGUAUCCAUGAUGUGUGCCCAGCCUGGAUGUCAGCUGUGUCCUGUGGGGGCGUGUGUGUAACUGUAGUGUAGUCAGGUGCUCAACGGAGAAUAUAAACAAAAAAA | 0.922
ACUGAACACAUGUGUAUGAUACUAAAGACGGUAUUAAAAUGGAGCGACGUUUAUUUCAUCUCUUGUUUACGAUUUCACUAGGACUCAGAAACGAGAUCGGGAAGCAGAAA | 0.7
CCCCACUCCCUGUUCCCUACCCAUAUAGGCCCUAAAUUUGGGAAAAAUCACUAUUAAUUUCUGAAUCCUUUGCCUGUGGGUAGGAAGAGAAUGGCUGCCAGUGGCUGAUG | 0.778
UUGUAUCGCUCACGAUGCACUGUGGUGUGCUCGGGUAUCUUUCCUCACUGGAGAGAGCAAGCACAGGAAGCUGGCUGCAGUGCCUUCCUCAUGAAGGAUCUACCACAACC | 0.26
AGCAGAAAAGAAGUGAGAACAUCUUGAUUCCCCUUUCUUUUACUUGAUGGUGUUUAUGAACAUGCCGUAGUGCCUUUAUGGCCAGUUUGAGUCCUGCCUACUUUGACUUU | 0.33

Study 4
Target: Centromere-binding protein 1, full length, N-terminal tag (CBF1, Saccharomyces cerevisiae, UniProt P17106, residues 1-351)
Chain of UniProt P17106 (whole entry, looked up): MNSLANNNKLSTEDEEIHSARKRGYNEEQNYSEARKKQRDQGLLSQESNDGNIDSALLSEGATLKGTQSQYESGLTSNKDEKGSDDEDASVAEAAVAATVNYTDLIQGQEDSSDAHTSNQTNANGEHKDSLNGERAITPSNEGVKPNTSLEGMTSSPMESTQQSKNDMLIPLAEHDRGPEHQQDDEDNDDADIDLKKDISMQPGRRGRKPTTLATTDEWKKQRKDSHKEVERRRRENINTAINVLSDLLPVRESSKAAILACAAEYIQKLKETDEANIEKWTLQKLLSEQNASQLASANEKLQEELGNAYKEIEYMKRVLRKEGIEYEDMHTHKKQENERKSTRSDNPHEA
Method: protein-binding microarray
Form: double-stranded DNA, one strand shown
Matrix: in vitro
Concentration: 0.8 µM
Setting: whole 60-bp probe, no competitor
Reading: higher = stronger binding
All sequences stand within: … GTCTTGATTCGCTTGACGCTGCTG
Oligonucleotide | fluorescence intensity [a.u.]
GAAATGCTAGTATGTAGTGATGGCTGCATGGTATAG | 539
CTACCTTTTGATTATCACGTTGAGTGTCGAAGATTC | 1010
GAAAATTTAGAGCTCAACACCACCATTGAGAACTAG | 484
CTATGATAAAGGAACCATGTGATCTTACGTTGATTC | 3090
CTATATGTGTTTATTCACGTTCACTGTGTGTTCTTC | 540
CTAGCACGTGATGACCACGTAATCGCATCGCCCTTC | 15000
CTAAGTCTACCCACGGTGATGATTTTTCTGCCATTC | 509
GAATCCAAGAATATAGATGTGACCATCCTGTTATAG | 516
CTAACCTTTTCTTTTCACCTGCTCTGGCTATAATTC | 580
TGTACGAAGCTATAAAACATGATTATAGTAGTTAGG | 510
CTATTGTATTCTTTTGGTAACGTGTATCTCAAATTC | 1530
GAAGTGATAAAACCTCACGTATGACACACTGGATAG | 570
GAAAGATGTATGGGTCTCATGAATAACGGCCCGTAG | 487
CTAATAGGAATTTAGACGCTGATGGATGTTATCTTC | 511
GAATAGCGACCTCATCACCACCTAGACCCCTCGTAG | 517
CTATCCAGTCTCATGCACATGTCAAATATGTGGTTC | 920
CCTAACTACTATAACGTGCTTGCATAGCTTCGTACA | 715
GAACTGTTCTGCGACCACGTCAATAATAGTTCCTAG | 501
GAACAGTTACTAGCGCACGAGACAAGGCAAAGCTAG | 758

Repeated from above (study 1):
Oligonucleotide | fitted relative affinity [z-score]
TTAGGAATCGGGACTGGGTTAGTGCTA | -0.705
TCACTAATAAATATGAGACTGTGCTAG | -0.345
TCATATTAAATTTTCACACTGTGCTAG | 1.26
AACGAACTGAGACTGGAGACGTGCTAG | -0.344
TCAGTTTTCTGGTTCCCACTGTGCTAG | 5.52
CAGCCTCTACCTCCTGGGCTCGTGCTA | -0.266
